Published values from different studies.
A part holds a random share of what one study measured.
UniProt Q9P1W9, sequence (whole entry, looked up): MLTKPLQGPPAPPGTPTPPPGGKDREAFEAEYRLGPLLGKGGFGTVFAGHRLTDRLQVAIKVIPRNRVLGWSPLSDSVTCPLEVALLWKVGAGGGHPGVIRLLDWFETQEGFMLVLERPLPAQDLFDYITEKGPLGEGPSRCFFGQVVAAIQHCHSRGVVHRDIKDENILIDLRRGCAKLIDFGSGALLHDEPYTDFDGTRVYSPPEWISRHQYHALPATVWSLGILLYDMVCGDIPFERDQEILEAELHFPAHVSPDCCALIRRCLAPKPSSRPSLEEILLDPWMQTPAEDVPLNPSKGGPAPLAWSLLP
UniProt P23458, sequence (whole entry, looked up): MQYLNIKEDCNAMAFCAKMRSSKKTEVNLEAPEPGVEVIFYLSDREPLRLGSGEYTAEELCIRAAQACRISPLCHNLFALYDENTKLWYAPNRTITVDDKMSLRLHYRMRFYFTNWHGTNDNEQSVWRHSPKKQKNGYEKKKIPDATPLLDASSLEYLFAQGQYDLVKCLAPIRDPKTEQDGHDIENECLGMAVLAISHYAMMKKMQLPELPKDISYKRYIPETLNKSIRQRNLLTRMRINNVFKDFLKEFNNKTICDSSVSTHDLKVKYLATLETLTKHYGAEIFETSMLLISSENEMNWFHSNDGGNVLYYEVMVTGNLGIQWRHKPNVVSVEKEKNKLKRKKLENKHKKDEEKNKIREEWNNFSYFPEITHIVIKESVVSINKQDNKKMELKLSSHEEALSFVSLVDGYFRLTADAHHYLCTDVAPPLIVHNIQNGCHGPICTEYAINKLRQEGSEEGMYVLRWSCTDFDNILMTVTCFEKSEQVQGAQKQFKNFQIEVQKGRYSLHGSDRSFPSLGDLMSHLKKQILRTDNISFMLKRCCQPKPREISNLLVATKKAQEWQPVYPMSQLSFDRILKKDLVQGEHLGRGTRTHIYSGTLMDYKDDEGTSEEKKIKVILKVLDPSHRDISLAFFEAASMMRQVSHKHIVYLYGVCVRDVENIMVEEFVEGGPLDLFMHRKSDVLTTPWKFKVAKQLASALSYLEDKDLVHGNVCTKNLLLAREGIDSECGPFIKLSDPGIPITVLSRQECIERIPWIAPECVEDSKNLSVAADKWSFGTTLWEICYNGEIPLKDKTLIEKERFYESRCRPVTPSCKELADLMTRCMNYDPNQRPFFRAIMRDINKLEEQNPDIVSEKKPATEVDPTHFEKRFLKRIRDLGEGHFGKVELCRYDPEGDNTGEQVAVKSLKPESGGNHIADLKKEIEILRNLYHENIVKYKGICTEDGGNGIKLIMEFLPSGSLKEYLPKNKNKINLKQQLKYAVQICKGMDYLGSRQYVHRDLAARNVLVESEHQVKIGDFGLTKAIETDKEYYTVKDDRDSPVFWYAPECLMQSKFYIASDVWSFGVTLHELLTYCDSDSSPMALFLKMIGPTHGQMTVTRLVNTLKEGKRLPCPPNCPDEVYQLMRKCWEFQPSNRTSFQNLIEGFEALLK
UniProt Q8TD19, sequence (whole entry, looked up): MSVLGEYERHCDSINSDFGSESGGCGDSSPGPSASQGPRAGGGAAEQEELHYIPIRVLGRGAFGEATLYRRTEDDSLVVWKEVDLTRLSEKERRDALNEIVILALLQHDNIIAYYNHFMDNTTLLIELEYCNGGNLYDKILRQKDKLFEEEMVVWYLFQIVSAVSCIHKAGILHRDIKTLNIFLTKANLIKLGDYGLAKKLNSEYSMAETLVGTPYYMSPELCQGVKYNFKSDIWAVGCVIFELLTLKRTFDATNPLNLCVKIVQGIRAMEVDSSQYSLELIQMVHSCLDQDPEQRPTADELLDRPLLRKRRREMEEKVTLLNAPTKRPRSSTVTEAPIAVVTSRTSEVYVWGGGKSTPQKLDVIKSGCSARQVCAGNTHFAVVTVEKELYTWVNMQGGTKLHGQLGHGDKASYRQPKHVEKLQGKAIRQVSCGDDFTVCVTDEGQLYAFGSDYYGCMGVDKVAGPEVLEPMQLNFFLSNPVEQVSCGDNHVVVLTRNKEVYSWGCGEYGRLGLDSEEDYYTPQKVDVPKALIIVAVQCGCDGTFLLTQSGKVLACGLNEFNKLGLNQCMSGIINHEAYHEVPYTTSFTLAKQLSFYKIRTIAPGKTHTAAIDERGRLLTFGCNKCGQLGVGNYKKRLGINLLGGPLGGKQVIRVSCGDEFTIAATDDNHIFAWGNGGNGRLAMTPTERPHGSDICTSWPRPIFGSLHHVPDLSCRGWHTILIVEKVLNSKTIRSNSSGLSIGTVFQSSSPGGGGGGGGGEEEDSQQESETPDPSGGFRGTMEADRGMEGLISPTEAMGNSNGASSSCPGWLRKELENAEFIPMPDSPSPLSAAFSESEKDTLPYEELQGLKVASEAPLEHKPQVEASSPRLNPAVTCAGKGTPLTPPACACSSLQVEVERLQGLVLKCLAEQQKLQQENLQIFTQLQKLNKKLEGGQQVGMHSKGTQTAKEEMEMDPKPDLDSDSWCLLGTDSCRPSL
UniProt P07333, sequence (whole entry, looked up): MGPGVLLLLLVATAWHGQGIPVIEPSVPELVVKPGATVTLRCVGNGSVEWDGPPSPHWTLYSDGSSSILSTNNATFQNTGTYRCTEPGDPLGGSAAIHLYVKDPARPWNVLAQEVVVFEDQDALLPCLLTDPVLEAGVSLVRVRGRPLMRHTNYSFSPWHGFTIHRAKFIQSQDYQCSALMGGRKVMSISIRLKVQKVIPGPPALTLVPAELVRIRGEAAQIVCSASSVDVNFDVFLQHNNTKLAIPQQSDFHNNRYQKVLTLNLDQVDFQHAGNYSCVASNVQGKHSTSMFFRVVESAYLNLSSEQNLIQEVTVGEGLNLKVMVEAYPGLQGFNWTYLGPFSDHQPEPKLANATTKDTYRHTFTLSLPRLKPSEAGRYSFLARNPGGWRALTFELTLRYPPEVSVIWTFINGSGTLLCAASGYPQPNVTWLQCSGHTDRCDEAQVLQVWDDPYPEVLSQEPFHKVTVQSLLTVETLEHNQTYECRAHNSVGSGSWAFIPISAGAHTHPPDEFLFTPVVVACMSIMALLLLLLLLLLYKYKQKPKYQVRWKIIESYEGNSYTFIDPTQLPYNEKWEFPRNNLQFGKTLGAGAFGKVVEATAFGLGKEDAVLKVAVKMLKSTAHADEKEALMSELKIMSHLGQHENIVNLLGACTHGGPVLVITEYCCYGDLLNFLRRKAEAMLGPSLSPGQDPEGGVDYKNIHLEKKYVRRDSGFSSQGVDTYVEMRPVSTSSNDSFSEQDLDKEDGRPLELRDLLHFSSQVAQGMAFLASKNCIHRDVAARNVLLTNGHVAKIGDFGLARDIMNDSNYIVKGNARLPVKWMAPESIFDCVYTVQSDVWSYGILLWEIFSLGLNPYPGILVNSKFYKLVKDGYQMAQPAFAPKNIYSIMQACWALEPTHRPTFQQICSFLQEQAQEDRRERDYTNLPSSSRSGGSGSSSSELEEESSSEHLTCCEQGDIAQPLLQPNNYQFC
UniProt P41240, sequence (whole entry, looked up): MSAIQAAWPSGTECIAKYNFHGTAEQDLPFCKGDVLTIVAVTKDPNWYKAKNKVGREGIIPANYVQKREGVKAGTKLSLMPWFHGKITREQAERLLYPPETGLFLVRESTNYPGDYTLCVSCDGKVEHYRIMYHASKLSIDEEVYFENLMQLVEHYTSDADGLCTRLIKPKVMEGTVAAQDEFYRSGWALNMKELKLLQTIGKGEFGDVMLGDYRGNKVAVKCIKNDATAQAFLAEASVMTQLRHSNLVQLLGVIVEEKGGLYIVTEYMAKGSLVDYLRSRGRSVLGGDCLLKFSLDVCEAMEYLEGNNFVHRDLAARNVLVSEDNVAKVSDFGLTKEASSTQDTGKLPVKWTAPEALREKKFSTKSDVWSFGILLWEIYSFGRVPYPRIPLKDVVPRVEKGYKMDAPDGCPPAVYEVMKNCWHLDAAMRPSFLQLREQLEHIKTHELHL
UniProt O43283, sequence (whole entry, looked up): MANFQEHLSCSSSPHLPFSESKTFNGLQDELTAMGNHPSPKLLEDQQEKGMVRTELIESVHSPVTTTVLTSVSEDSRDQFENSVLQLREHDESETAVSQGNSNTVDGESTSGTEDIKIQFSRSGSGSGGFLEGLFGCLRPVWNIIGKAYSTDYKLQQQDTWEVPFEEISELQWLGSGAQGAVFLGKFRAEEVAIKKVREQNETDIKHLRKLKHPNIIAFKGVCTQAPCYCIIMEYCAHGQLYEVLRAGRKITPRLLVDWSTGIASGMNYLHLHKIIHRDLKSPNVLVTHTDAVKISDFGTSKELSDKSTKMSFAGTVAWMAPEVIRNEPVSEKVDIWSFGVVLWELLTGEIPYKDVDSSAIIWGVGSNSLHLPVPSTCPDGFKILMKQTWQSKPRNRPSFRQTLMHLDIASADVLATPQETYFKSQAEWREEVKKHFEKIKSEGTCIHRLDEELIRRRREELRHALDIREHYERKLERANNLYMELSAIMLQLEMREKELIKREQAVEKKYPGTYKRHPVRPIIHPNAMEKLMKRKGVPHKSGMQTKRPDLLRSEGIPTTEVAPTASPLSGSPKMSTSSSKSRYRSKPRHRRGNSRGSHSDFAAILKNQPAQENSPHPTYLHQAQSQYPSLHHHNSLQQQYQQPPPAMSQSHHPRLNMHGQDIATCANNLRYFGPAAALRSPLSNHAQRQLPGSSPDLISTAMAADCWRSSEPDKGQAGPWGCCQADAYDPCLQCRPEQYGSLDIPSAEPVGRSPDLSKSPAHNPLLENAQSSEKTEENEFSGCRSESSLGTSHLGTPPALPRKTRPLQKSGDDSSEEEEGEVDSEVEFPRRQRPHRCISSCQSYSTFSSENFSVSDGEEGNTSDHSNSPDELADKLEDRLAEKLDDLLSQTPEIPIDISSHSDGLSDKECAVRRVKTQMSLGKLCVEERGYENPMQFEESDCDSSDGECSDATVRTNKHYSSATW

Series 1
SMILES: CCCCc1c(-c2ccc(OC)cc2)[nH]c2nccnc12
Effect on: enzyme activity
Mode: inhibitor
Tested at: 0.5 µM
Baseline: control
target | remaining activity [%]
SGK1 (Homo sapiens, UniProt O00141) | 88.4
EPHB2 (Homo sapiens, UniProt P29323) | 88.8
PIM2 (Homo sapiens, UniProt Q9P1W9) | 115
NUAK1 (Homo sapiens, UniProt O60285) | 25
MYLK (Homo sapiens, UniProt Q15746) | 96.8
CSK (Homo sapiens, UniProt P41240) | 87
RPS6KB1 (Homo sapiens, UniProt P23443) | 108
PRKCG (Homo sapiens, UniProt P05129) | 94.4
PAK2 (Homo sapiens, UniProt Q13177) | 97.5
GRK6 (Homo sapiens, UniProt P43250) | 88.3
RPS6KA1 (Homo sapiens, UniProt Q15418) | 89.8
EPHA7 (Homo sapiens, UniProt Q15375) | 98
FGFR4 (Homo sapiens, UniProt P22455) | 92.5
PRKCE (Homo sapiens, UniProt Q02156) | 102
GRK2 (Homo sapiens, UniProt P25098) | 78.5
Aurora kinase C (AURKC, Homo sapiens, UniProt Q9UQB9) | 55.8
SRPK3 (Homo sapiens, UniProt Q9UPE1) | 97.9
CSF1R (Homo sapiens, UniProt P07333) | 37.7
FLT3 (Homo sapiens, UniProt P36888) | 47.8

Series 2
SMILES: CN(C)C(=O)Cn1cc(-c2nc(C3(c4ccc(-c5cnc(N)nc5)cc4)CC3)no2)cn1
Effect on: cell-free assay
Method: competition with immobilised ligand
Tested at: 1 µM
target | remaining binding [%]
MAPK13 (Homo sapiens, UniProt O15264) | 91
MAP3K13 (Homo sapiens, UniProt O43283) | 100
Tyrosine-protein kinase JAK2, JH1 (JAK2, Homo sapiens, UniProt O60674) | 65
WNK2 (Homo sapiens, UniProt Q9Y3S1) | 67
PDPK1 (Homo sapiens, UniProt O15530) | 82
NEK9 (Homo sapiens, UniProt Q8TD19) | 100
Tyrosine-protein kinase JAK1, JH1 (JAK1, Homo sapiens, UniProt P23458) | 76
Cyclin-dependent kinase 4, with cyclin D1 (CDK4, Homo sapiens, UniProt P11802) | 44
FGFR3 (Homo sapiens, UniProt P22607, G697C) | 100
PIK3CG (Homo sapiens, UniProt P48736) | 85
AXL (Homo sapiens, UniProt P30530) | 93
TAOK2 (Homo sapiens, UniProt Q9UL54) | 100
MST1R (Homo sapiens, UniProt Q04912) | 95
BTK (Homo sapiens, UniProt Q06187) | 82
AKT3 (Homo sapiens, UniProt Q9Y243) | 87
MAPK9 (Homo sapiens, UniProt P45984) | 81
Tyrosine-protein kinase ABL1, non-phosphorylated (ABL1, Homo sapiens, UniProt P00519, Q252H) | 48

Series 3
Host: human
Medium: microsomes or S9
Tested at: 2 µM
Time: 0.5 h
Structure (SMILES) | remaining compound
CCc1cnc(N2CCC(N(C)c3ncnc4c(-c5ccc6c(c5)CN(C)C6=O)csc34)CC2)nc1 | 21.3%
O=c1[nH]ncn2c1cc1cc(Br)ccc12 | 72.3%
COc1cc(N2CCN(C(C)=O)CC2)ccc1Nc1ncc(Cl)c(Nc2ccc(N3CCN(S(C)(=O)=O)CC3)cc2OC)n1 | 0%
Cc1ccc2c(c1)N(C(=O)c1cccc(F)c1)CC(C)O2 (stereo not drawn) | 15.2%
COCCn1c(CCNC(=O)C2CCCN(c3ncccn3)C2)nc2ccccc21 (stereo not drawn) | 5.61%
O=c1cnnc(Nc2ccc(Br)cc2)[nH]1 | 67.1%
CCOC(=O)Cc1c(-c2nc3ccccc3c(=O)[nH]2)[nH]c2ccccc12 | 36%
COc1ccc(Cc2nc(-c3ccc(=O)[nH]c3)no2)cc1Cl | 72.4%
CCOC(=O)Cc1cc(=O)c2c(=O)n(-c3ccccc3)[nH]c2[nH]1 | 91%
COC(=O)Nc1ccc(-c2ccc(C)nc2N)cc1 | 91.6%
COc1cc(Br)c(/C=C2\Oc3ccccc3C2O)cc1OC (stereo not drawn) | > 99.9%
O=C(c1c2c(nc3ccccc13)C(=O)N(C1CCCCC1)C2)N1CCN(C2CCCCC2)CC1 | 34.3%
CC(C)CN(CCNS(=O)(=O)c1ccc(-c2ccc(=O)[nH]n2)s1)CC(C)C | 0.42%
COc1ccc(OCCNC(=O)c2cc(S(=O)(=O)N(C)C)c(Cl)cc2Cl)cc1 | 32.5%

Single results of other studies
SMILES | target | mode | quantity | value
CN(Cc1ccc(F)cc1)Cc1ccccc1OCC(O)CN1CCCCC1 (stereo not drawn) | Beta-1 adrenergic receptor (ADRB1, Homo sapiens, UniProt P08588) | agonist | Emax | 96.4%
